Measurements collected from several papers.
A part holds a random share of what one study measured.

Sample 1
Target: Replicase polyprotein 1ab, nsp13 helicase (rep, Severe acute respiratory syndrome coronavirus 2, UniProt P0DTD1)
Action: inhibitor
Concentration: 20 µM
With `CC12CCC(C(Br)C1=O)C2(C)C` (stereo not drawn) the inhibition was -3.06%.
`CCNC(=O)[C@H]1O[C@@H](n2cnc3c(N)nc(NCCc4ccc(CCC(=O)O)cc4)nc32)[C@H](O)[C@@H]1O` gave an inhibition of 1.57%.
With `OC[C@H]1O[C@H](O[C@]2(CCl)O[C@H](CCl)[C@@H](O)[C@@H]2O)[C@H](O)[C@@H](O)[C@H]1Cl` the inhibition was -1.45%.
`CSc1nc(-c2ccnc(NC(C)c3ccccc3)c2)c(-c2ccc(F)cc2)[nH]1` (stereo not drawn) gave an inhibition of 6.77%.
The inhibition of `CNC(=O)c1cccc(-c2ccc3c(N4CCOC[C@@H]4C)nc(N4CCOC[C@@H]4C)nc3n2)c1` is reported as 1.69%.
For `Cc1cn(-c2cc(NC(=O)c3ccc(C)c(Nc4nccc(-c5cccnc5)n4)c3)cc(C(F)(F)F)c2)cn1`, the inhibition was 15.9%.
For `CCCCC(CC)CNC(=N)NC(=N)NCCCCCCNC(=N)NC(=N)NCC(CC)CCCC` (stereo not drawn), the inhibition was 81.5%.
`Cc1c(C)c2c(c(C)c1O)CCC(C)(COc1ccc(CC3SC(=O)NC3=O)cc1)O2` (stereo not drawn) gave an inhibition of 2.36%.
With `COc1ccc(C(=O)c2c(C)n(CCN3CCOCC3)c3cc(I)ccc23)cc1` the inhibition was -2.38%.
The inhibition of `O=C(O)/C=C/c1ccc(-c2ccc(O)c(C34CC5CC(CC(C5)C3)C4)c2)cc1` is reported as 15.7%.
The inhibition of `CN1C(=O)/C(=C2/C(=O)Nc3ccccc32)c2ccccc21` is reported as 27.9%.
`CC(=O)CC(c1ccccc1)c1c(O)c2ccccc2oc1=O` (stereo not drawn) gave an inhibition of -24%.
`O=c1c2ccccc2nc2n1CCc1c-2[nH]c2ccccc12` has an inhibition of 0.5%.
The inhibition of `CS(=O)(=O)Nc1ccc(Cc2noc(-c3ccc4[nH]cc(CCN)c4c3)n2)cc1` is reported as 8.96%.
`COc1cc2c(cc1OC)CC(=O)N(CCCN(C)C[C@H]1Cc3cc(OC)c(OC)cc31)CC2` has an inhibition of 7.32%.
The inhibition of `C=CC(=O)Nc1cccc(Oc2nc(Nc3ccc(N4CCN(C)CC4)cc3OC)ncc2Cl)c1` is reported as 2.79%.
`CCOc1ccc(Cc2cc([C@]34OC[C@](CO)(O3)[C@@H](O)[C@H](O)[C@H]4O)ccc2Cl)cc1` gave an inhibition of 2.89%.
`CCCCCS(=O)(=O)CCCCCCCCCCn1c(-c2ccc(O)cc2)c(C)c2cc(O)ccc21` gave an inhibition of 3.81%.
`CCSc1ccc2c(c1)N(CCCN1CCN(C)CC1)c1ccccc1S2` gave an inhibition of 14.3%.
With `Cc1c(I)c(=O)n(-c2ccccc2)n1C` the inhibition was 4.26%.
The inhibition of `N=C(N)NC(=O)Cc1c(Cl)cccc1Cl` is reported as 2.76%.
The inhibition of `Cc1nc(N(C)C(=O)Cc2ccc(-c3ccccn3)cc2)sc1S(N)(=O)=O` is reported as 2.25%.
With `O=c1cc[nH]c2cc(Cl)ccc12` the inhibition was 12.5%.
With `COc1cc(C(=O)N(CCC2CCCN2C)C/C(C)=C/c2ccccc2F)cc(OC)c1OC` (stereo not drawn) the inhibition was 6.08%.
`C[N+](C)(C)CCOP(=O)(O)OP(=O)([O-])OC[C@H]1O[C@@H](n2ccc(N)nc2=O)[C@H](O)[C@@H]1O` has an inhibition of 0.24%.

Sample 2
Target: Interferon regulatory factor 7, full length, phosphomimetic (IRF7, Homo sapiens, UniProt Q92985, residues 1-503, S101K/S471D/S472D/S475D/S476D/S477D/S483D/S484D/S487D)
Sequence of UniProt Q92985 (whole entry, unmodified, looked up): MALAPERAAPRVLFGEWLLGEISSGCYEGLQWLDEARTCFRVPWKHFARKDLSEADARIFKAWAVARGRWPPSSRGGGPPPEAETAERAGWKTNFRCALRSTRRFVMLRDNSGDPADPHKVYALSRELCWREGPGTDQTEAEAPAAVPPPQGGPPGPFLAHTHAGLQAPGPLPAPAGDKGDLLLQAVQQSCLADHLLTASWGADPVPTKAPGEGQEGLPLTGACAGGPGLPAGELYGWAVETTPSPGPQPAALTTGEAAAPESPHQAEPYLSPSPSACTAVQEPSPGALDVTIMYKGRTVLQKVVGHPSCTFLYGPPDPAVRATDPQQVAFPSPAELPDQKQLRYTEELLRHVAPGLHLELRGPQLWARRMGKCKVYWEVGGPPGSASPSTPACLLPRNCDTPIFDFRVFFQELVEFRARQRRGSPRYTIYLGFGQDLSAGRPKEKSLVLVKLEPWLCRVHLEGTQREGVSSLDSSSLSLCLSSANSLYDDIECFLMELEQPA
Technique: protein-binding microarray
Form: double-stranded DNA, one strand shown
Matrix: in vitro
Concentration: 250 nM
Notes: 60-bp whole probe
Together with: salmon DNA 0.4 mg/ml
Relative to: random background probes
Reading: higher = stronger binding
All sequences stand within: GCCTAGCAC … GTCTTGATTCGCTTGACGCTGCTG
`GACGAACTGGGGTATCGAGATGTGCTA` has a log fluorescence of -0.166 z-score.
`GACGGACTGCGGTATCGGGACGTGCTA` gave a log fluorescence of -0.506 z-score.
For `GACGGTTTCGGTCTCGGGGCGTGCTAG`, the log fluorescence was 7.68 z-score.
The log fluorescence of `TTAGATTTCAGTATCGCTTAGTGCTAG` is reported as 0.806 z-score.
The log fluorescence of `TTAGGTTCCGTTTTCCTTTAGTGCTAG` is reported as 8.53 z-score.
The log fluorescence of `TCACTGCTCCTTCTGACACTGTGCTAG` is reported as -0.208 z-score.
`CCTCCTCTAACTTTCCAATTGTGCTAG` gave a log fluorescence of 0.493 z-score.
`GACGATATCCGACTGGAGACGTGCTAG` has a log fluorescence of -0.0978 z-score.

Sample 3
Target: Histone acetyltransferase KAT6A, winged helix 2, GST fusion (KAT6A, Homo sapiens, UniProt Q92794, residues 85-181)
Technique: protein binding microarray
Form: double-stranded DNA, one strand shown
Matrix: in vitro
Concentration: not given
Notes: 8-mer, flanks averaged, mean of 2 arrays, mostly near background
Relative to: not given
Reading: higher = stronger binding
Target sequence (chain): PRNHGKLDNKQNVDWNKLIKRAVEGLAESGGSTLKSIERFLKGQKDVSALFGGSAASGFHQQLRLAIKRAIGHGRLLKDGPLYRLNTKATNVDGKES
`ACCGCTGC` has an E-score of 0.0306.
With `GATCTTAA` the E-score was 0.0128.
`AATTTCAA` gave an E-score of 0.0909.
For `CCGCGGCA`, the E-score was 0.148.
With `CGAACGCC` the E-score was 0.0113.
The E-score of `GCTGTTGA` is reported as -0.0193.
With `CTATCGTC` the E-score was -0.182.
For `AATTGCCA`, the E-score was -0.067.

Sample 4
Target: RNA binding protein fox-1 homolog 2, RRM domain, GST-SBP tag (RBFOX2, Homo sapiens, UniProt O43251-10, residues 100-194)
Technique: RNA Bind-n-Seq
Form: RNA
Matrix: in vitro
Concentration: 365 nM
Notes: natural RNA segment, single round, ends assumed
Relative to: no-protein control
Reading: higher = stronger binding
Target sequence (chain): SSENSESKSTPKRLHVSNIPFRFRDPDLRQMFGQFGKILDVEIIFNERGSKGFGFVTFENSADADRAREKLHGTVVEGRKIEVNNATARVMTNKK
Under “RBNS enrichment (R)”, `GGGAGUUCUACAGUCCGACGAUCACAACUGAAUGCUAUAAAAGUGUUUUGCUGUGUACACAUAAGAUACUGUUCGUUAAAAUAAGCAUUCCCUUGACAGCACAGGAAGAAAAGCGAGGGAAAUGUAUGGAUUAUGGAAUUCUCGGGUGCCAA` is recorded as 1.15.
`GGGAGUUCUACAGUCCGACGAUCCAUUUUAUUUUAGGGGCCAGAUCUAACAUUGUAGUGUCUUUCACCAGAUAGACUUCUACUGUUUCAUCAAACUCCCUUCUUAACUAGACCUAGACUUUCUACUCCAAUCAUGGAAUUCUCGGGUGCCAA` — result for “RBNS enrichment (R)”: 0.2.
`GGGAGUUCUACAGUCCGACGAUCUGGCCUGGUGACCUCUAGGACCAAAGUCUUCCUGGAGCUGACCUCUAUGGUGUGGAGUGGUGGCAGAAGACUCUGAAAGGGAAGAAAUUGGCAAAGCUGCAGCUUUUUCCUGGAAUUCUCGGGUGCCAA`: “RBNS enrichment (R)” 0.969.
For `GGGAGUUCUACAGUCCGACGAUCAGGUUAGAAUGUGCAUCGCGCAUAGCCGAGCAGCCUGCUAGCAGGUGACACACUCCGUGGGGGAGGCUCUUCUCCCCUUCUUUCUCUAGUCUGGGUGGUGAACGGGCUGAUGGAAUUCUCGGGUGCCAA`, “RBNS enrichment (R)” read 0.456.
Under “RBNS enrichment (R)”, `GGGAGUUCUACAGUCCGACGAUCUAUUUAAAUAACAUCAACAGAACAACUUCACUUUGGGCCAAACAUUUGAAAAACUUUUUAUAAAAAAUUGUUUGAUAUUUCUUAAUGUCUGCUCUGAGCCUUAAAACACAUGGAAUUCUCGGGUGCCAA` is recorded as 0.544.
For `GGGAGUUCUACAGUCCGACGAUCUUUUGUCUUGUGUUGGGGUUAGAGAGAGCAGGAAGGGGGUUCUGACCCUCUUCCCUCCACUGAGUGCUGGACAUUCGGAACCCAAGUUCUUAUGGACCUACGGAGGAGAGUGGAAUUCUCGGGUGCCAA`, “RBNS enrichment (R)” read 0.496.
`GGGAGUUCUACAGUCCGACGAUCAGUGUAAUAUUGUAUUAAUUUGUUAAAUUCUAAACUUGAAUUUCAAUAAAAUUUUAAAGCUAAUUGUGUUUUUGUGUAACUUUGUGGCCAACUGAUUUUGUAAGUGGUGCUGGAAUUCUCGGGUGCCAA` — result for “RBNS enrichment (R)”: 1.49.
For `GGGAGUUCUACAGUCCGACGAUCACAGCUAAUGGUGCAGUUCUAAAUAUAUAUUGCAUAGGACUGGCAUUAUAUAGCAGAAAUAACUACUGUAUAAUUCUUGGGGUUAACCAUCUUUAGUUAAUGGAAUUUUAUGGAAUUCUCGGGUGCCAA`, “RBNS enrichment (R)” read 0.656.

Sample 5
Cell line: HEK-293T
Read-out: pseudovirus infection
Technique: FDA-approved drug library screen
Organism: VSV pseudotyped with SARS-CoV-2 spike
Concentration: 10 µM
Time: 16 h
Relative to: vehicle-treated
`CC(C)c1nc(CN(C)C(=O)N[C@H](C(=O)N[C@@H](Cc2ccccc2)C[C@H](O)[C@H](Cc2ccccc2)NC(=O)OCc2cncs2)C(C)C)cs1` gave a GFP-positive cells of 48.3%.
For `O=C(OCc1ccccc1)c1ccccc1`, the GFP-positive cells was 103%.
`CC1(C)S[C@@H]2[C@H](NC(=O)Cc3ccccc3)C(=O)N2[C@H]1C(=O)O` has a GFP-positive cells of 78.2%.

Single results of other studies
`N#CSc1cc(SC#N)c(N)nc1N` has an EC50 of ~6.6 µM (SARS-CoV-2; viral RNA; Vero E6).
The inhibition of `CN(C)S(=O)(=O)c1cccc(-n2sc3ccccc3c2=O)c1` is reported as 99.8% (Replicase polyprotein 1ab, main protease (rep, Severe acute respiratory syndrome coronavirus 2, UniProt P0DTD1); enzyme activity; 20 µM, with DTT).

For quick reference, copied from above (sample 3):
For `AATTGCCA`, the E-score was -0.067.
With `CGAACGCC` the E-score was 0.0113.
`AATTTCAA` gave an E-score of 0.0909.
With `CTATCGTC` the E-score was -0.182.
For `CCGCGGCA`, the E-score was 0.148.
With `GATCTTAA` the E-score was 0.0128.
The E-score of `GCTGTTGA` is reported as -0.0193.
